# Experimental data pooled from the literature.
# A part holds a random share of what one study measured. Substitutions count along the parent as printed.

# Set 1
# Target: RING finger protein unkempt homolog, zinc fingers 1-6, GST-SBP tag (UNK, Homo sapiens, UniProt Q9C0B0, residues 30-357)
# Method: RNA Bind-n-Seq
# Form: RNA
# Matrix: in vitro
# Tested at: not given
# Setting: RNA with constant flanks, human and mouse sites, ends assumed
# Reference: input RNA pool
# Reading: higher = stronger binding
# All sequences stand within: GGGAGUUCUACAGUCCGACGAUC … CAACAGAGGAUUGAGCAUCA
# Construct (chain): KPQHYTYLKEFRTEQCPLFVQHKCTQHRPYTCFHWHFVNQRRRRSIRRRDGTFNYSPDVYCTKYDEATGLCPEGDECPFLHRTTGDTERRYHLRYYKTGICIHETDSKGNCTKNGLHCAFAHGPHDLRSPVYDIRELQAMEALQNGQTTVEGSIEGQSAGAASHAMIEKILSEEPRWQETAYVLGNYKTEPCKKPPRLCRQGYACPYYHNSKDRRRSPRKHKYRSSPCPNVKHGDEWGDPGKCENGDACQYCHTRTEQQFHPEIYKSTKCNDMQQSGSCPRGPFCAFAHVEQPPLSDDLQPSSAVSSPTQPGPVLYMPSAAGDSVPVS
Oligonucleotide,bound/input enrichment [ratio]
AAUUAUAUGAACCAAUUGUAUCAAGCUAUGCAUCGGAUUUAUGAUGCACAGAAUGAAUUGAGUGCAGCAACACACCUGACUUCGAAACUUUUGAAAGAAUAUGAAAAACAGCGUUUUCCU,0.146
GCAUGUUCUUAUGGACACUAUGAAGUUGCAGAACUUCUUGUCAAGCAUGGAGCAGUAGUCAAUGUCGCUGACUUGUGGAAGUUCACACCUUUACAUGAAGCUGCAGCAAAAGGAAAAUAU,0.173
AAAGCUCCUAUUCUGAUUGCUACAGAUGUGGCCUCCAGAGGGCUAGAUGUGGAAGAUGUGAAAUUUGUCAUCAAUUAUGACUACCCUAACUCCUCAGAGGAUUAUAUUCAUCGAAUUGGA,0.13
GGAAAUGGAGAAUUUUGUCAGUGUUACAUGGGCUCACAGAAACAAUUUAAAAUUACUAAACUUUCACCAGCAAUGGGCUGUAAAUUCAGACUAUCGGCCAGAAAUGACUAUGGUACAAGU,0.497
CAAGGUGGUUUCAGAGAAGUGCGGAAUGAGUAUGGCUCAAGAAUAGGAGGCAAUGAAGGGAUAGAUGUCCCAAUUCCAAGAUUUGCUGUUGGCAUUGUAAUAGGAAGAAAUGGAGAAAUG,2.54
UAGCUCUCCCUGUGCUAACUGCCUGCGCCUUGACAGCCGGGCUGCGCAAAGCAGAGGGAUUAGUUGGGACCUGCCUUGGUGACCCCAUGGCAUCCCCACGAACCAUAACUAUCAUGGCCC,0.0827
GAAAGGACCCUGGGACUGAGCAGCCCUUGUGACAACCGUGUCCCCACUCCGCAGCUGUACUUCACCACGCCCUCCAACCAGAACGUCUACCAGGUGGACUCCCUGCAGUCUACGUGAAAG,0.205
AACACCAACACAGCAAUUGAACUAAAAUUAGUUCGUUUUCCUGAAGAUCUUGAAAAUGACAUUAGAACUUUCUUUCCUGAGUAUACCCAUCAACUCUUUGGGGAUGAUGAAACUGCUUUU,0.0978

# Set 2
# Target: ABI1, truncated, D143A, DHFR fusion (Arabidopsis thaliana)
# Method: DHFR PCA, deep sequencing
# Matrix: yeast
# Setting: methotrexate growth selection, single substitutions
# Together with: (+)-ABA 0 µM
# Reference: wild-type fitted maximum
# Reading: higher = stronger binding
# Starting sequence: PYL1, truncated, DHFR fusion (Arabidopsis thaliana); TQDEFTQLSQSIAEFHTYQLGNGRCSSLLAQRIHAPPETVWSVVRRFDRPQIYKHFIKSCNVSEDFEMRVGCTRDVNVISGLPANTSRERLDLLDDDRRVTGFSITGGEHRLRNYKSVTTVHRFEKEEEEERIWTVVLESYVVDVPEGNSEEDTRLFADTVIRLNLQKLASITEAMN; partner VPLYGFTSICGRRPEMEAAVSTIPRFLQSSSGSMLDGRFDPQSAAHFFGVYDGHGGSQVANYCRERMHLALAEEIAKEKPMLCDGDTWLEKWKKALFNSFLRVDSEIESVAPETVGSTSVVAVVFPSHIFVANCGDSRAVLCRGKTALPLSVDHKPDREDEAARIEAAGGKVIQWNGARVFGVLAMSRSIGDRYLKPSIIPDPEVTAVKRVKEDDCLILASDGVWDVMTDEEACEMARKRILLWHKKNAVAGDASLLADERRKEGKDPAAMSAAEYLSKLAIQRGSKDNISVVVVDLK
Variant,relative binding score
R111C,10.5%
C72D,23.5%
R49A,29.1%
Y53D,-0.279%
V161R,4.41%
K116V,4.61%
L20C,35.2%
N77C,47.8%
N114I,2.28%
V44T,-1.82%

# Set 3
# Target: CCNE1, cyclin fold, Cln2 fusion (human)
# Method: yeast growth competition, sequencing
# Matrix: yeast
# Setting: weak parent motif
# Reference: not given
# Reading: higher = stronger binding
# Starting sequence: DOT1L docking peptide (human); SEAKRRIVFTITT
Variant,normalised enrichment score
I7A,0.334
K4A,0.705
F9A,0.261
I11A,0.486
T12A,0.713
T13A,0.635

# Further values, each from its own experiment
Substance,target,test,test system,conditions,how to read,quantity,result
"PhoQ, residues 284 288 289 292 302 303 MLMVEA","PhoP, residues 12 14 15 18 19 TPWLV (Escherichia coli, UniProt P23836)","Sort-seq, measured: YFP reporter",E. coli,"PhoQ-PhoP variant library, together with: 10 µM Mg2+","reference: high Mg2+ state, higher = stronger signaling",fold induction,21.5
